# Measured values of several laboratories.
# Each line is one published result; not all experiments were run side by side. Substitutions count along the parent as printed. ± marks the error that the study gave.
# topA full length assumed R169A: topA full length assumed R169A (Escherichia coli, UniProt P06612)
# Putative PAS/PAC sensor protein full length assumed: Putative PAS/PAC sensor protein full length assumed (Nakamurella multipartita, UniProt C8XJT7)
# P1: JPH2 N-terminal region (Mus musculus); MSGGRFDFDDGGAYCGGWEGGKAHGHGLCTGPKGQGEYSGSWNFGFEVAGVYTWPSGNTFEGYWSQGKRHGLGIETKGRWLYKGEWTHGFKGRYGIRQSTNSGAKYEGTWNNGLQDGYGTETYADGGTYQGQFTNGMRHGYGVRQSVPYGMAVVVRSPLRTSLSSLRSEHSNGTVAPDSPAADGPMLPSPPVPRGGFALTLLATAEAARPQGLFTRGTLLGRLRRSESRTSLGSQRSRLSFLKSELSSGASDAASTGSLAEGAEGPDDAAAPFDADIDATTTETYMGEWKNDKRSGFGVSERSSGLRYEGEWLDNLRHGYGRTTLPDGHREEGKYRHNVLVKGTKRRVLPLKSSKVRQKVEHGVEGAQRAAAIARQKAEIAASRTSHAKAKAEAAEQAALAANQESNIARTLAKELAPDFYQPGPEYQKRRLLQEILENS
# Chain of UniProt P21693 (whole entry, looked up): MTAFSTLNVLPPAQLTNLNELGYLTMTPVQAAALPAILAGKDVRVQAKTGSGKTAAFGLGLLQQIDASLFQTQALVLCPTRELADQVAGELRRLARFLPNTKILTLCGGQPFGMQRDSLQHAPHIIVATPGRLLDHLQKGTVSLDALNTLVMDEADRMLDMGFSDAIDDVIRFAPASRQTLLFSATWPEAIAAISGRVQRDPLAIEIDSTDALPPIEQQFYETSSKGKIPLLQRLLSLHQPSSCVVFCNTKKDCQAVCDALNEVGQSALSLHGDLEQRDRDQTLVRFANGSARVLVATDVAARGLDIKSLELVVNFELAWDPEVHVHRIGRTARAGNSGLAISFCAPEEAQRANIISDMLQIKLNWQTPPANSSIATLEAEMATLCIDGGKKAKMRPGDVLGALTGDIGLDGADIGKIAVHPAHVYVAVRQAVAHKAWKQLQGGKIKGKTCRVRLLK
# Chain of UniProt P60335 (whole entry, looked up): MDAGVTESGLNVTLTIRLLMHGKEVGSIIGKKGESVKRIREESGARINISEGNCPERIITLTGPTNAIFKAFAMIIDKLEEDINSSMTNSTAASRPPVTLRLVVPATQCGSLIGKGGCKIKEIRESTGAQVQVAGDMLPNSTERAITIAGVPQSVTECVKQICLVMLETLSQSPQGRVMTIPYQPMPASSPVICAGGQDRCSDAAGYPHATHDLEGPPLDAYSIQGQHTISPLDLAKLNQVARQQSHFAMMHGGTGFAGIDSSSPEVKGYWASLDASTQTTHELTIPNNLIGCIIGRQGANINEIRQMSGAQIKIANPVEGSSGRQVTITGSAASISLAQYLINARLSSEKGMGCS
# Chain of UniProt O26901 (whole entry, looked up): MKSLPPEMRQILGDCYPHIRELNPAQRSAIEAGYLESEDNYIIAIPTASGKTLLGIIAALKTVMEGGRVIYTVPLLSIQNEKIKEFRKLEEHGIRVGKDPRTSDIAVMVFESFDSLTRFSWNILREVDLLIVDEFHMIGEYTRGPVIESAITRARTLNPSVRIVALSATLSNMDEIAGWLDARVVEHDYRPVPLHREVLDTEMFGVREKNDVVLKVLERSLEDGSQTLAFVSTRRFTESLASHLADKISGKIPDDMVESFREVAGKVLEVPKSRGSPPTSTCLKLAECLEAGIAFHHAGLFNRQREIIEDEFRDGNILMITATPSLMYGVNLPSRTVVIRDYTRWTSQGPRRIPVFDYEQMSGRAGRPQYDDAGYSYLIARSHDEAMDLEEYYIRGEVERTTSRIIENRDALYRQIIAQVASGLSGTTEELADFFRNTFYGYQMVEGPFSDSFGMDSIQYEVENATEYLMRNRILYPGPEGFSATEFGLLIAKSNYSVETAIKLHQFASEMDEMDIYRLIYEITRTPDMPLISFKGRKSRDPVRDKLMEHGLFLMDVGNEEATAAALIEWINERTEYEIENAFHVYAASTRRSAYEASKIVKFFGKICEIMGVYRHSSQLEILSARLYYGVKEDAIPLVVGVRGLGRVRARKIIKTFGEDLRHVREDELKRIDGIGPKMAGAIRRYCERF
# Chain of UniProt P38996 (whole entry, looked up): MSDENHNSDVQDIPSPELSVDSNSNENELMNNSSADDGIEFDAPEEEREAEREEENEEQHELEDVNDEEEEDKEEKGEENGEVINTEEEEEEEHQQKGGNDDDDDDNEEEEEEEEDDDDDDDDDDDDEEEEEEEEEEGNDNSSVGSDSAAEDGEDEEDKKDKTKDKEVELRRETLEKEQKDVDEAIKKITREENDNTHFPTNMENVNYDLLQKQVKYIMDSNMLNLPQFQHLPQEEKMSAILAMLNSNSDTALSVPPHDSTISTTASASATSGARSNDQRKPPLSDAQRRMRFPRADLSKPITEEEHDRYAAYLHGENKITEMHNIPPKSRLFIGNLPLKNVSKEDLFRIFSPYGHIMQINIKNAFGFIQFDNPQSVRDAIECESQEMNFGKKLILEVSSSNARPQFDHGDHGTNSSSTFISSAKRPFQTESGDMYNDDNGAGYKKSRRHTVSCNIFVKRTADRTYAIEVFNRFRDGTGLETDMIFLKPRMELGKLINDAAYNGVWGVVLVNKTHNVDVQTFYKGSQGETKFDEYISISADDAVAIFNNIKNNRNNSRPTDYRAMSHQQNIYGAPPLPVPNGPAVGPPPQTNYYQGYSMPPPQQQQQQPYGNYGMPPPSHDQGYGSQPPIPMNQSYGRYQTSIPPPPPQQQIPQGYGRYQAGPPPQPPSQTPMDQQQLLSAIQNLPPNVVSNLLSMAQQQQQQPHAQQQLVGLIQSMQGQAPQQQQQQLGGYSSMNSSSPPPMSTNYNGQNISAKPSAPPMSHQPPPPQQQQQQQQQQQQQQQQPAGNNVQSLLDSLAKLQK
Substance,target or system,assay,test system,setting,how to read,endpoint,value
CCCCGUAGAAAAUCUUAGUAAUCCUUCUUACAUUG (ssRNA),"NAB3 321-415 (Saccharomyces cerevisiae, UniProt P38996)",fluorescence anisotropy,RNA,,,Kd,46000 ± 1000 nM
"GGAUUGUUACUGAUAAAGCAGGCAAAACC (ssRNA; hairpin, two internal loops)","sacY 1-55 A26R (Bacillus subtilis, UniProt P15401)",SPR,folded RNA,,,Kd,600 ± 200 nM
"DNA 1 TCACGCGGGATCAATGTGTTCTTTCAGCTCCGGTCACGCTGACCAGGAATACCTCACTACC / DNA 2 GGTAGTGAGGTATTCCCCCGTAAGGGTCCGTAAGGATGGTCAGCGTGACCGGAGCTGAAAGAACACCCGTAAGGGTCCGTAAGGACATTGATCCCGCGTGA (structured DNA; four-way junction, 5-methyl-dC)","ROS1 1-1393 Q607A (Arabidopsis thaliana, UniProt Q9SJQ6)",EMSA,folded DNA,130 nM,,binding,binds
AAUUGCUACCCAAUGCCUGGCCCAAGGGCAUUCCCAAAGCUUA (ssRNA),"Pcbp1 97-162 (Mus musculus, UniProt P60335)",EMSA,RNA,,,binding,binds
"GCCCTGAAAGATTATGGAATGGGATTAGGGTAAAGGAAGAGAGCATAATCTTTCAGGGC (hairpin DNA; hairpin, 16 bp stem, 27 nt loop)","topA full length assumed Y177S (Escherichia coli, UniProt P06612)",fluorescence anisotropy,folded DNA,together with: EDTA,,Kd,0.46 ± 0.08 nM
P1 E85K,CACNA1C JBM (Mus musculus),ITC,,,,Kd,22000 nM
"GGUUUGUUACUGAUAAAGCAGGCAAGACC (ssRNA (Bacillus subtilis); hairpin, two internal loops)","licT 1-56 (Bacillus subtilis, UniProt P39805)",SPR,folded RNA,,,Kd,5500 ± 2200 nM
"GCCCTGAAAGATTATGGAATGCGATTAGGGTAAAGGAAGAGAGCATAATCTTTCAGGGC (hairpin DNA; hairpin, 16 bp stem, 27 nt loop)",topA full length assumed R169A,fluorescence anisotropy,folded DNA,together with: EDTA,,Kd,0.86 ± 0.15 nM
AUUUUUUUUUUUUAGGUCUUAAGGGUAUGGCUGUUCGCCAUUU (structured RNA),"dbpA full length assumed (Escherichia coli, UniProt P21693)",SPR,folded RNA,"KCl 50 mM, kinetic, no ATP",,Kd,56.9 ± 0.2 nM
CCUUGAAGCAGACGACC (structured RNA),Putative PAS/PAC sensor protein full length assumed,32P well-retention assay,folded RNA,together with: blue light,,binding,no binding
"GCCCTGAAAGATTATGGAATGAGATTAGGGTAAAGGAAGAGAGCATAATCTTTCAGGGC (hairpin DNA; hairpin, 16 bp stem, 27 nt loop)",topA full length assumed R169A,fluorescence anisotropy,folded DNA,together with: EDTA,,Kd,0.55 ± 0.12 nM
"GGUUGAAGCAGACGACC (hairpin RNA; hairpin, 7-nt loop)",Putative PAS/PAC sensor protein full length assumed,fluorescence anisotropy,folded RNA,"22 °C, together with: blue light",,Kd,12 ± 1 nM
P1 S165Y,CACNA1C JBM (Mus musculus),Strep pull-down,,"3 µM, read off a plot","reference: unchanged protein, higher = more binding",relative binding,64%
"DNA 1 CAACGTCATAGACGATTACATTGCTACATGGAGCTGTCTAGAGGATCCGA / DNA 2 GTCGGATCCTCTAGACAGCTCCATGATCACTGGCACTGGTAGAATTCGGC / DNA 3 TGCCGAATTCTACCAGTGCCAGTGAT / DNA 4 TAGCAATGTAATCGTCTATGACGTT (dsDNA; fork, leading and lagging strands)","hel308 1-690 (Methanothermobacter thermautotrophicus, UniProt O26901)",EMSA,folded DNA,,,binding,binds

# A few entries again:
Substance,target or system,assay,test system,setting,how to read,endpoint,value
"GGAUUGUUACUGAUAAAGCAGGCAAAACC (ssRNA; hairpin, two internal loops)","sacY 1-55 A26R (Bacillus subtilis, UniProt P15401)",SPR,folded RNA,,,Kd,600 ± 200 nM
"GCCCTGAAAGATTATGGAATGCGATTAGGGTAAAGGAAGAGAGCATAATCTTTCAGGGC (hairpin DNA; hairpin, 16 bp stem, 27 nt loop)",topA full length assumed R169A,fluorescence anisotropy,folded DNA,together with: EDTA,,Kd,0.86 ± 0.15 nM
